Published values gathered from unrelated publications.
Each numbered part is a random draw from the data of one study; scales do not carry over between parts.
Chain of UniProt Q99558 (whole entry, looked up): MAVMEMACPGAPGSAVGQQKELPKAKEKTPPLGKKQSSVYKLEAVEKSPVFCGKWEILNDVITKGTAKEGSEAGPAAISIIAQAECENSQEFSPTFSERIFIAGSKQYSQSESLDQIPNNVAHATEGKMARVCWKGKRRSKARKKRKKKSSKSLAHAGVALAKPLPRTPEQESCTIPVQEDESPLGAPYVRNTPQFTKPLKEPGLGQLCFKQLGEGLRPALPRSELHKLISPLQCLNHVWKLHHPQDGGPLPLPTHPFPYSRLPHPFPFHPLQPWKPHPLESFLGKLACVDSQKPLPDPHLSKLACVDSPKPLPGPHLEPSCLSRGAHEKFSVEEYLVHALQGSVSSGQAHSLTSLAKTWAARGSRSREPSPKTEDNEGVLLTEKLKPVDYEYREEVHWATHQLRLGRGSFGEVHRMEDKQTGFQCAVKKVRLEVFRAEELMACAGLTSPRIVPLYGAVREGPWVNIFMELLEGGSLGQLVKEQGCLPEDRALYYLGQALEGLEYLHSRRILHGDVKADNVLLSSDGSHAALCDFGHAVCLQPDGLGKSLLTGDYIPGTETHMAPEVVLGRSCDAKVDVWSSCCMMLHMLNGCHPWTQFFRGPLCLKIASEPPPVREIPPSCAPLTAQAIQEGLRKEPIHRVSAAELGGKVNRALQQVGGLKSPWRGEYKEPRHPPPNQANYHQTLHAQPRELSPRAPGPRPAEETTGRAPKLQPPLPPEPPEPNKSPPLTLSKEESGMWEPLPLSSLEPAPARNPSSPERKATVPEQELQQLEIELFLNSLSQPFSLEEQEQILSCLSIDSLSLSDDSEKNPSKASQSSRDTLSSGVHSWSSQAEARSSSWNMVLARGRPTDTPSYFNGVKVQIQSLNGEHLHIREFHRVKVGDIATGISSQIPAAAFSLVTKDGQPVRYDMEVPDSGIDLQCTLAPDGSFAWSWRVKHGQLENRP
Chain of UniProt Q9UK32 (whole entry, looked up): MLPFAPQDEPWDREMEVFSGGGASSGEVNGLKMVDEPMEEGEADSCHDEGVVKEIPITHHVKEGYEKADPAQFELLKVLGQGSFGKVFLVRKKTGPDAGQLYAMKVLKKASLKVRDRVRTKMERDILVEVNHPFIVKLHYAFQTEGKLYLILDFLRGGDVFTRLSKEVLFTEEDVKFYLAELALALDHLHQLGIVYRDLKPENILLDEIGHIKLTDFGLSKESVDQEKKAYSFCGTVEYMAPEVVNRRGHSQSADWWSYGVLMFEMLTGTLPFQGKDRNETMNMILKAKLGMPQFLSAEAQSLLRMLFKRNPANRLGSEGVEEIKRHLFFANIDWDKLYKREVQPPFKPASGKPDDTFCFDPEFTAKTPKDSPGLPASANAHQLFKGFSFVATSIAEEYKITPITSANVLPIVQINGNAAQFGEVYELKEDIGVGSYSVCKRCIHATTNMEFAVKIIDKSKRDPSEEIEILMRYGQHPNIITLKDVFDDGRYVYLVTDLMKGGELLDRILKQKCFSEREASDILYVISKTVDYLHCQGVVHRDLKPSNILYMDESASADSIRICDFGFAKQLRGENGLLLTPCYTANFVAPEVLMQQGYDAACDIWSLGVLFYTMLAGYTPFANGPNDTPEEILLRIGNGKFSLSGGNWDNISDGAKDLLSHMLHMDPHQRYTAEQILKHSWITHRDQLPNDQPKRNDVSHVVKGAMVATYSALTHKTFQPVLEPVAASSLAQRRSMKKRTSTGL
Chain of UniProt P42336 (whole entry, unmodified, looked up): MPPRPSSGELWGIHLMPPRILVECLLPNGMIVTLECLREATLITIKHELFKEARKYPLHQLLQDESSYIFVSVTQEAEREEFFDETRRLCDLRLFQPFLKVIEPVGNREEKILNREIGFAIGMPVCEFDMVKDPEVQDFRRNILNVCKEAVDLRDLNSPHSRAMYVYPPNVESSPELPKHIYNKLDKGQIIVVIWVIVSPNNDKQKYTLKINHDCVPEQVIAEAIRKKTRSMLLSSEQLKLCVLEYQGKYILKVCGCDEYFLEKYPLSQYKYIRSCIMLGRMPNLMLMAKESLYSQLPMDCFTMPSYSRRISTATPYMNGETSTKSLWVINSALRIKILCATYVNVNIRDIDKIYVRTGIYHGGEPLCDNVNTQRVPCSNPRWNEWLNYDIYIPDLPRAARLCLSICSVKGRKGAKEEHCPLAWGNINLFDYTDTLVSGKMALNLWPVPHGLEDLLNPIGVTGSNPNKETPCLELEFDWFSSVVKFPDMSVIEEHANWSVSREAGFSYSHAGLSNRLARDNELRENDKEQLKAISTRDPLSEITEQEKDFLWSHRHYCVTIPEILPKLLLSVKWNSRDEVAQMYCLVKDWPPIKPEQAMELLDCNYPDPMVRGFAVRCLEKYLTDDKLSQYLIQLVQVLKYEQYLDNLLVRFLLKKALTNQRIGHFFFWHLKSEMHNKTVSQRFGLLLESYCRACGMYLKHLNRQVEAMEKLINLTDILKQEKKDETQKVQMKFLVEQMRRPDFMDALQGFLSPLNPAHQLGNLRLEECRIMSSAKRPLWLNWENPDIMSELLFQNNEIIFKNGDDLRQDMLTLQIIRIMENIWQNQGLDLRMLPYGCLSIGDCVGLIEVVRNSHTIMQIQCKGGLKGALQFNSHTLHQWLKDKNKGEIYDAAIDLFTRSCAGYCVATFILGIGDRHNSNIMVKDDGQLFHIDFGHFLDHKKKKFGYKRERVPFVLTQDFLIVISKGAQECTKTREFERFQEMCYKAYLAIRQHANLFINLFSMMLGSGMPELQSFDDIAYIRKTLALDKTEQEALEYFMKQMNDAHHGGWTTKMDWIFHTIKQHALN
Chain of UniProt O00329 (whole entry, looked up): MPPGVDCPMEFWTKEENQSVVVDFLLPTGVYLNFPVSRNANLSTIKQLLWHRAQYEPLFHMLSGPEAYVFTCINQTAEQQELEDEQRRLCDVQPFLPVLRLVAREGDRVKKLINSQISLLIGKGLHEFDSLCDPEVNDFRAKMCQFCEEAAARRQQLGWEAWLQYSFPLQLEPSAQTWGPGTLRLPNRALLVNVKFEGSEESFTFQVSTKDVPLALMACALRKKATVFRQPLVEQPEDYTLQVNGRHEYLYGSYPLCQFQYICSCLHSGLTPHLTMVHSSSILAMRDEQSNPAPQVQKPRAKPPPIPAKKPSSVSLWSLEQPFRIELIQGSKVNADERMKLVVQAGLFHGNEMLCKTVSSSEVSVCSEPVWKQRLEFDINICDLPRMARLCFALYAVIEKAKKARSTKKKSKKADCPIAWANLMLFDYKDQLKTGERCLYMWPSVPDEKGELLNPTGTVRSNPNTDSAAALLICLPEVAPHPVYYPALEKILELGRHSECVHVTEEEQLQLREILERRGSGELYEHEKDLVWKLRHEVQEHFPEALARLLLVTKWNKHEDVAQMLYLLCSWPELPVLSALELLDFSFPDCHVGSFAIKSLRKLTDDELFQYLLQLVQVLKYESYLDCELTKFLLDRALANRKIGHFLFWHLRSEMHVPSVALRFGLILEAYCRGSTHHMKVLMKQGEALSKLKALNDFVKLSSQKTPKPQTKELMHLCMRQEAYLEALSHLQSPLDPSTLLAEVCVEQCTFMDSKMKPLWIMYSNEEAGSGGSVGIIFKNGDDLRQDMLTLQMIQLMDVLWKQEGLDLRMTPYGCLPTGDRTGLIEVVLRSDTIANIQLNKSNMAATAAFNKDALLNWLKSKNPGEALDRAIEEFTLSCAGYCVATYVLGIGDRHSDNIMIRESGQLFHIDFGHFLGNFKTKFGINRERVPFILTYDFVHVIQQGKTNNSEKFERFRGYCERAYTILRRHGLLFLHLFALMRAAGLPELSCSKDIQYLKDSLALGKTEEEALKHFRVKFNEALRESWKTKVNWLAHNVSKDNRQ
Chain of UniProt P51957 (whole entry, looked up): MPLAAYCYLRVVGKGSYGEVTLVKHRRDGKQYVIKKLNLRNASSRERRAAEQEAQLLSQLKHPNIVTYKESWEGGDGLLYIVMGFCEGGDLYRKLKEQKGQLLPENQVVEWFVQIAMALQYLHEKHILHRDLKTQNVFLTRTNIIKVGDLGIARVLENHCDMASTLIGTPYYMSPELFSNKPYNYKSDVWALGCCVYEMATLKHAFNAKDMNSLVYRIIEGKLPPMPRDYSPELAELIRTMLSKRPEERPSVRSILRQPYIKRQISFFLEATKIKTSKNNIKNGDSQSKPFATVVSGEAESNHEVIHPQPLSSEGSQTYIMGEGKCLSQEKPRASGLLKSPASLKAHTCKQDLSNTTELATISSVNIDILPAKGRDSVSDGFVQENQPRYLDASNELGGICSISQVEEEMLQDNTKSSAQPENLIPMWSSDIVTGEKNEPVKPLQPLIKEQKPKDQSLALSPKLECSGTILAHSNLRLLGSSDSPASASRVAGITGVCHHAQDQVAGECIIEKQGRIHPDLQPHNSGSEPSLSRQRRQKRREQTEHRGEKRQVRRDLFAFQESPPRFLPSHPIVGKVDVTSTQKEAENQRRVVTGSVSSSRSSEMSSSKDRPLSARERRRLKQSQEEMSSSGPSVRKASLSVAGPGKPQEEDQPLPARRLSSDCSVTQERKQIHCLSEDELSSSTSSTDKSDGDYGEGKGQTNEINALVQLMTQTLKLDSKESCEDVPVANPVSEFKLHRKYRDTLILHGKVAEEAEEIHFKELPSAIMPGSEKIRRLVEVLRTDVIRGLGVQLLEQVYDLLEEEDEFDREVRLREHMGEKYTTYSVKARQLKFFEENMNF
Chain of UniProt Q9P289 (whole entry, looked up): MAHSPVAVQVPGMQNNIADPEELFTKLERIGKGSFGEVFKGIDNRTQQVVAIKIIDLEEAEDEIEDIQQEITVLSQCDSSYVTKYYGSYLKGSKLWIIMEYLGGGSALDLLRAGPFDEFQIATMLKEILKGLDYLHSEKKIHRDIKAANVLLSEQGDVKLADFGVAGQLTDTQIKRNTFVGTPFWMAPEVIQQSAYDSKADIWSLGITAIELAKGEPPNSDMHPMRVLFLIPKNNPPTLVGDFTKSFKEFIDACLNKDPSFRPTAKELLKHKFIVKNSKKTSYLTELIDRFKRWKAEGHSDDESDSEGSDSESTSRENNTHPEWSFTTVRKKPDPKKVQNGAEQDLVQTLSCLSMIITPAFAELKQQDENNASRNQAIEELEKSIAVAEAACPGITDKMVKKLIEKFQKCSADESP

Set 1 — method: competition with immobilised ligand; tested at: 1 µM
SMILES: O=C(N[C@H]1CCCCC/C=C\C2C[C@@]2(C(=O)O)NC(=O)[C@@H]2C[C@@H](Oc3ccncc3)CN2C1=O)OC1CCCC1 (some centres unmarked)
target | assay | remaining binding [%]
PIK3CA (Homo sapiens, UniProt P42336, H1047Y) | binding | 100
DDR1 (Homo sapiens, UniProt Q08345) | cell-free assay | 100
FGFR2 (Homo sapiens, UniProt P21802) | cell-free assay | 79
STK26 (Homo sapiens, UniProt Q9P289) | binding | 97
PIK3CD (Homo sapiens, UniProt O00329) | binding | 92
CSNK1A1 (Homo sapiens, UniProt P48729) | cell-free assay | 80
Ribosomal protein S6 kinase alpha-6, C-terminal kinase domain (RPS6KA6, Homo sapiens, UniProt Q9UK32) | binding | 86
CAMKK1 (Homo sapiens, UniProt Q8N5S9) | binding | 96
NEK4 (Homo sapiens, UniProt P51957) | binding | 79
Tyrosine-protein kinase ABL1, phosphorylated (ABL1, Homo sapiens, UniProt P00519, H396P) | binding | 71
EGFR (Homo sapiens, UniProt P00533, del752-759) | cell-free assay | 49
PKN1 (Homo sapiens, UniProt Q16512) | binding | 100
MAP3K14 (Homo sapiens, UniProt Q99558) | binding | 100
PIK3CB (Homo sapiens, UniProt P42338) | binding | 100

Set 2 — method: RNA Bind-n-Seq; molecule type: RNA; sample: in vitro; tested at: 365 nM; relative to: no-protein control; reading: higher = stronger binding
Target: RNA binding protein fox-1 homolog 2, RRM domain, GST-SBP tag (RBFOX2, Homo sapiens, UniProt O43251-10, residues 100-194)
Setting: natural RNA segment, single round, ends assumed
Shared flanks, not repeated: GGGAGUUCUACAGUCCGACGAUC … UGGAAUUCUCGGGUGCCAA
Strand | RBNS enrichment (R)
CAUUUGGUCUUAACACUAUGGGCUUUGUUUGCUCUGUGCUGCUGUGCCACUGCUGUUGUCUGCUCAUUGUCCUGCCUGUUGCUCAUUAUAGCCCCUGUCCUUCAUGUGUC | 0.395
GCAGGGGCCAUCCACCCGCCCCAGGACCAGCCCUCAGGGAGGGGAAACGGCCGAGAGCCCCCCCCCGGAGGCCCGAGGGGCCGGGGUGUGGAUGCGGACCGUGGCCAGGC | 0.422
GGCCGAUGGGAGUCUCCCUCCGACUCCAGAUAUGAACAGGGCCCAGGCCUGGAGCGUUUGCUGUGCCAGGAGGCGGCAGCUCUUCUGGGCAGAGCCUGUCCCCGCCUUCC | 0.793
CUGAAGCCCUCUGUUGAACAACAGGGCCAGAUCCUAAAGCUCUUUCAGGGAGCUCUUCUCUGGGGCUGGAACAGUUGAUUAUGCAACCCCAUUGUGUGGAGAUUGGAUCA | 0.397
CCUAUCAGGAGGAUUCCUUCACAAUGUAUUUUAUUUGCUAGACUUUGGUUGGGAGGGAAAAGGACAUUAAUUUGAAGUUUCAUGUUAUUCAUGCCAGGAUUGUUUGAUAG | 1.13
UGAAUGGGCUGGGGGUGGGGUGGCCUUCUCCAGGCCUGAGUGUUUUUGUGUCCAGCUCAGUAUCUGCAACAAGAAGUUUCCCACUUGUGGAUGUUUAGUGCAGCCACAGA | 0.663
ACCUCCCCAUUGGGCUGAUGAGAAAAUACACGCAGGCCUAGCAUGGUGCCUGCCACCAUGGUGGGAUCCAGUAUGUUUUAUAAAUCUGAAUGAGUAAAUGGCUCACCAAU | 1.05
UGGGAACUUAUUAUACAUGGACAUUUUUGAAUAUGCCUUAAUUUAGAAACUGAAAAAUAAUCCAGUGACAUCAUUCUGGGUGUGUUCUCACUAGCUCGCGGGGCCACUUG | 0.553

Set 3 — method: protein-binding microarray; molecule type: double-stranded DNA, one strand shown; sample: in vitro; tested at: not given; reading: higher = stronger binding
Target: Max dimerization protein 1, bHLH-zipper, MAX partner unstated (MXD1, Homo sapiens, UniProt Q05195, residues 56-136)
Setting: k-mer, scored over probes, only values ≥0.25
Construct (chain): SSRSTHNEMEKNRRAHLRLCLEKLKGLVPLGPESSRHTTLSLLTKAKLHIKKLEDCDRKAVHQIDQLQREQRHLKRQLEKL
Strand | E-score
CACGCATA | 0.309
AACATGCT | 0.385
ACCCCCCA | 0.284
ACACGGGA | 0.283
CTCATGCC | 0.326
ATGTGTGG | 0.271
GCAATGCC | 0.258
GTGCGCAC | 0.341

Single results of other studies
Compound | target or system | assay | system | conditions | how to read | measurement | result
C#C[C@]1(O)CC[C@H]2[C@@H]3CCC4=CC(=O)CC[C@@H]4[C@H]3CC[C@@]21C | Sarcocystis neurona | parasite growth |  | concentration not given, first screen | relative to: untreated | log2 fold change | 0.04
NC(=O)c1ccccc1NC(=O)Cc1ccccc1C(=O)O |  |  | human, microsomes or S9 | 2 µM, 0.5 h |  | remaining compound | 86.5%
CN(CCOc1ccc(CC2SC(=O)NC2=O)cc1)c1ccccn1.Cl (centres unmarked) | Sarcocystis neurona | parasite growth |  | concentration not given, first screen | relative to: untreated | log2 fold change | 0.14
CC(C)n1cnc(-c2ccc(F)cc2)c1-c1ncc(C(=O)Nc2ccc(N3CCN(C)CC3)cc2)[nH]1 |  | phase 2a trial | patients with idiopathic pulmonary fibrosis | 60 mg once daily, renal and urinary disorders SOC, grade 2 |  | patients with TEAE | 0%
CC1=C(C(=O)O)N2C(=O)[C@@H](NC(=O)[C@H](N)c3ccccc3)[C@H]2SC1.O | Sarcocystis neurona | parasite growth |  | concentration not given, first screen | relative to: untreated | log2 fold change | -0.0334

Repeated from above (set 3):
Strand | E-score
CACGCATA | 0.309
AACATGCT | 0.385
